Published values of several laboratories.
Compare with care: the assays were run in different laboratories. Several values in a cell are separate wells, animals, samples, runs or records. ± gives the spread as reported.
CA12: Carbonic anhydrase 12 (CA12, Homo sapiens, UniProt O43570)
17-beta-hydroxysteroid dehydrogenase 13: 17-beta-hydroxysteroid dehydrogenase 13 (Homo sapiens, UniProt Q7Z5P4)
Gria1/Gria2: Glutamate receptor AMPA 1/2 (Gria1/Gria2, Rattus norvegicus, UniProt P19490+P19491)

COCCOc1cc2ncnc(Nc3cccc(-c4cn(-c5ccccc5S(N)(=O)=O)nn4)c3)c2cc1OCCOC — selectivity ratio (CA12; relative to: Ki hCA II over Ki hCA XII): 0.18
CC(=O)c1cnc(NS(=O)(=O)c2ccc(C(F)(F)F)c(Cl)c2)nc1 — oxidized product ratio (17-beta-hydroxysteroid dehydrogenase 13; enzyme activity; human hepatocytes, scramble siRNA, culture medium; 24 h; relative to: scramble siRNA control): 0.226 and 0.262 and 0.291 and 0.236
OC[C@@H]1[C@@H](O)[C@H](O)[C@@H](O)c2nccn21 — -ΔS (bglA (Thermotoga maritima, UniProt Q08638); ITC; pH 6.8, 25 °C): 3.25 ± 0.311 kcal/mol
CCCCCC(O)/C=C/C=O (stereo not drawn) — isoTOP-ABPP competition ratio (Isoleucine--tRNA ligase, cytoplasmic (Homo sapiens, UniProt P41252); competitive isoTOP-ABPP, item: IARS cysteine peptide; proteome, soluble, MDA-MB-231; 100 µM, added: iodoacetamide probe; relative to: DMSO over compound-treated, higher = stronger cysteine blockade): 1.7
O=C(NC1CCN(Cc2ccccc2)CC1)c1ccc(Cl)cc1Cl — remaining specific binding (Sodium- and chloride-dependent glycine transporter 2 (Homo sapiens, UniProt Q9Y345); MS binding competition; 10 µM): 83.4 ± 4.5%
COC(=O)[C@@]1(C)C=C(C(=O)Nc2cccc(C(=O)Nc3ccc(Nc4nccc(-c5cccnc5)n4)c(C)c3)c2)C(=O)CC1 — normalized fluorescence polarization (Mitogen-activated protein kinase 8, docking groove (MAPK8, Homo sapiens, UniProt P45983); peptide binding, inhibitor, fluorescence polarization; 12.5 µM, added: JIP1 peptide probe): 0.881
Fc1ccc(Nc2nc(NC3CCCCC3)c3ccccc3n2)cc1F — maximal inhibition (ADRB2 (Homo sapiens, UniProt P07550, C125V); β-arrestin2 recruitment, antagonist, BRET; mutant C125V; relative to: isoprenaline maximal response): 10.6%
COC(=O)Cc1cc2c(cc1C(=O)c1ccccc1Cl)OCO2 — current amplitude after recovery (Gria1/Gria2; glutamate-evoked current, whole-cell patch clamp; HEK-293T; concentration not given, glutamate alone after washout, added: glutamate): 539 ± 39 pA
C[Si](C)(C)C[C@@H](CN)CC(=O)O — inhibition (alpha1 adrenergic receptor, rat; binding, radioligand binding; 75 µM, added: [3H]prazosin): 3%
CCCCCC=CC=C1C(=O)C=CC1CC=CCCCC(=O)O (stereo not drawn) — isoTOP-ABPP competition ratio (DNA polymerase delta subunit 2 (Homo sapiens, UniProt P49005); competitive isoTOP-ABPP, item: POLD2 cysteine peptide; Ramos soluble proteome; 100 µM, added: iodoacetamide probe; relative to: DMSO over compound-treated, higher = stronger cysteine blockade): 1.6
Cc1cc(=O)oc2cc(OCCCCCCSC#N)ccc12 — selectivity ratio (CA12; stopped-flow CO2 hydration; relative to: Ki CA I over Ki CA XII): > 1580
CC(=O)c1cnc(NS(=O)(=O)c2ccc(Cl)c(Cl)c2)nc1 — oxidized product ratio (17-beta-hydroxysteroid dehydrogenase 13; enzyme activity; human hepatocytes, scramble siRNA, culture medium; 96 h; relative to: scramble siRNA control): 0.108 and 0.113 and 0.101 and 0.132
CC1CCC2C(C)(C)C(O)CCC2(C)C12Cc1c(O)cc(CO)c(C=O)c1O2 (stereo not drawn) — Km (StaI′ Stachybotrys chartarum; substrate; 30 min, pH 7.5, 40 °C): 641 µM
CCCCCCCCCCCCCCCC(=O)OCC(CSC[C@H](N)C(=O)N[C@@H](CO)C(=O)N[C@@H](CCCCN)C(=O)N[C@@H](CCCCN)C(=O)N[C@@H](CCCCN)C(=O)N[C@@H](CCCCN)C(=O)NCCCCCC(=O)N[C@@H](CCCCN)C(=O)N[C@@H](CC(C)C)C(=O)N[C@H](C(=O)N[C@@H](Cc1ccccc1)C(=O)N[C@@H](Cc1ccccc1)C(=O)N[C@@H](Cc1ccc2ccccc2c1)C(=O)O)C(C)C)OC(=O)CCCCCCCCCCCCCCC (stereo partly drawn) — fibril diameter (Amyloid-beta precursor protein, fibrillar amyloid-beta (APP, Homo sapiens, UniProt P05067); TEM; 2.0 eq, 18 h, fibril 1, added: APP 20 µM): 23.2 nm
COC(=O)Cc1cc2c(cc1C(=O)c1ccccc1)OCO2 — deactivation time constant (Gria1/Gria2; glutamate-evoked current, whole-cell patch clamp; HEK-293T; concentration not given, weighted tau, 1 ms pulse, added: glutamate): 2.3 ± 0.2 ms
O=C(N1CCCC1)n1cc(-c2ccc(-c3ccccc3)cc2)nn1 — SILAC activity ratio (Protein phosphatase methylesterase 1 (Mus musculus, UniProt Q8BVQ5); probe labelling, inhibitor, competitive ABPP-SILAC, item: Ppme1; mouse T cells; concentration not given, 4 h, protein level; relative to: treated over DMSO cells, lower = stronger inhibition): 1.15
CC(C=CC=C(C)C=CC1=C(C)CCCC1(C)C)=CC=O — plasma membrane localization (Rhodopsin (RHO, Homo sapiens, UniProt P08100, T17M); immunostaining, item: opsin; COS-7 transfected; 1.00 µM, unit not given; relative to: surface over total stained cells): 0.17
O=C(Nc1cccc(C(=O)N2CCC(c3nc(-c4ccccc4)n[nH]3)CC2)c1)c1ccccc1 — ΔTm (AIFM2 (Homo sapiens, UniProt Q9BRQ8); target engagement in cells; HEK293; 10 µM): 3.2 °C
CN(C)CCCSC(=S)N1CCN(C(=O)/C=C/c2coc3ccccc3c2=O)CC1 — normalised MST response (Nucleoprotein (N, Tomato spotted wilt virus, UniProt P25999); binding, microscale thermophoresis; 62.5 µM; dose series): 0.233
CN(Cc1ccc(/C=C/C(=O)NO)cc1)CC12CC3CC(CC(C3)C1)C2 — inhibition (human PPARgamma receptor; agonist radioligand binding; 0.05 µM): 0%
C=CC(=O)N1CCCC(n2c(=O)c3ncccc3n(Cc3ccc(Oc4ccccc4)cc3)c2=O)C1 (stereo not drawn) — melting temperature shift (Host cell factor 1 (Homo sapiens, UniProt P51610); thermal proteome profiling, item: HCFC1; unit not given; relative to: vehicle): -5.16
O=C(NCc1cn(-c2ccccc2)nc1-c1ccccc1)c1cc([N+](=O)[O-])cc([N+](=O)[O-])c1 — translation activity (Trypanosoma cruzi; reporter mRNA translation, inhibitor, item: Renilla luciferase mRNA; cell-free extract; concentration not given, test 1; relative to: positive over negative control): 84.2%
O=C1c2sc(-c3ccc(N4CCC(CO)CC4)nc3F)nc2CCN1c1cccnc1 — SPR response (TAR DNA-binding protein 43, aggregated (TARDBP, Homo sapiens, UniProt Q13148); binding, surface plasmon resonance; brain-derived TDP-43 aggregates; 75 nM): 3.04 RU
CSCC[C@H](NC(=O)[C@H](CCC(N)=O)NC(=O)[C@H](CCCCN)NC(=O)[C@H](CCCNC(=N)N)NC(=O)[C@H](Cc1ccc(O)cc1)NC(=O)[C@H](CCCNC(=N)N)NC(=O)[C@H](CO)NC(=O)[C@H](Cc1ccc(O)cc1)NC(=O)[C@H](CO)NC(=O)[C@H](CC(=O)O)NC(=O)[C@@H](NC(=O)[C@@H](N)Cc1ccccc1)[C@@H](C)O)C(=O)N[C@@H](C)C(=O)N[C@H](C(=O)N[C@@H](CCCCN)C(=O)N[C@@H](CCCCn1cc(C[C@H](NC(=O)CNC(=O)[C@H](CO)NC(=O)[C@H](CCCNC(=N)N)NC(=O)[C@H](CO)NC(=O)[C@H](CC(C)C)NC(=O)[C@H](CC(C)C)NC(=O)CNC(=O)[C@H](C)NC(=O)[C@H](CC(C)C)NC(=O)[C@H](CCCNC(=N)N)NC(=O)[C@H](Cc2c[nH]cn2)NC(=O)[C@@H](NC(=O)[C@@H](N)C(C)C)[C@@H](C)O)C(=O)N[C@H](C(=O)N[C@H](C(=O)N[C@@H](CCCCN)C(=O)N[C@@H](CC(N)=O)C(=O)N[C@@H](CC(N)=O)C(=O)N[C@@H](Cc2ccccc2)C(=O)N[C@H](C(=O)N2CCC[C@H]2C(=O)N[C@H](C(=O)N[C@@H](CC(N)=O)C(=O)N[C@H](C(=O)NCC(=O)N[C@@H](CO)C(=O)N[C@@H](CCCCN)C(=O)N[C@@H](C)C(=O)N[C@@H](Cc2ccccc2)C(N)=O)C(C)C)[C@@H](C)O)C(C)C)C(C)C)C(C)C)nn1)C(=O)N[C@@H](Cc1ccc(O)cc1)C(=O)N[C@@H](CC(C)C)C(=O)N[C@@H](C)C(=O)N[C@@H](C)C(=O)N[C@H](C(=O)N[C@@H](CC(C)C)C(=O)NCC(=O)N[C@@H](CCCCN)C(=O)N[C@@H](CCCNC(=N)N)C(=O)N[C@@H](Cc1ccc(O)cc1)C(=O)N[C@@H](CCCCN)C(=O)N[C@@H](CCC(N)=O)C(=O)N[C@@H](CCCNC(=N)N)C(=O)N[C@H](C(=O)N[C@@H](CCCCN)C(=O)N[C@@H](CC(N)=O)C(=O)N[C@@H](CCCCN)C(N)=O)C(C)C)C(C)C)C(C)C — A2 (PACAP-responsive receptors, rat; cAMP accumulation, antagonist; rat spinal cord; 15 min, added: PACAP-38): 302 nM
O=C(O)Cc1cc2c(cc1C(=O)c1ccc(Cl)cc1Cl)OCO2 — deactivation time constant (Gria1/Gria2; whole-cell patch clamp; HEK-293T; concentration not given, added: glutamate): 10.6 ± 0.7 ms
CN(Cc1cc(C2CC2)on1)C(=O)c1cccc(-c2ccc3c(c2)CCO3)c1 — reaction rate (Acetyl-CoA synthetase (Cryptococcus neoformans, UniProt J9VFT1); enzyme activity, inhibitor, coupled pyrophosphate; 50 µM; higher is more activity): 0.000571 a.u.
O=C(O)Cc1cc2c(cc1C(=O)c1ccccc1I)OCO2 — current amplitude (Gria1/Gria2; glutamate-evoked current, whole-cell patch clamp; HEK-293T; concentration not given): 255 ± 19 pA
Cn1cc(-c2ccc(C(N)=O)cc2)cn1 — inhibition after jump dilution (Uridine nucleoside ribohydrolase (Trichomonas vaginalis, UniProt A2FTT0); enzyme activity, 19F NMR; 200 µM, 1-fold dilution): 100%
NC(=NO)NCCC[C@H](N)C(=O)O — stoichiometry second site (Arginase (Schistosoma mansoni, UniProt Q6WVP6); isothermal titration calorimetry): 2.8 ± 0.2
CC(C)Oc1cc(Cl)ccc1CNc1cc(-c2ccccc2)nc2ncnn12 — cAMP luminescence (GPR3 (Homo sapiens, UniProt P46089, V155A); cAMP level, cAMP GloSensor; 10 µM; higher = more cAMP): 2560 a.u. and 2530 a.u. and 2160 a.u. and 2380 a.u.
N#CN1CC[C@H](C(=O)Nc2nc3c(s2)CN(C(=O)Cn2cc(CNC(=O)CCCC[C@@H]4SC[C@@H]5NC(=O)N[C@@H]54)nn2)CC3)C1 — iBAQ abundance (EEF1A1 (Homo sapiens, UniProt P68104); probe binding, affinity probe, neutravidin pull-down LC-MS/MS; HEK293T, cell lysate; 5 µM, 1 h, mean of three replicates, unit not given; higher = more pulled down): 6.35e+08
CC1(C)C[C@@H](Nc2cccc(-c3sc(C(=O)O)c(OCC(=O)O)c3Cl)c2)CCN1S(=O)(=O)Cc1cccc(NC(=O)CN2CCC(c3ccc4c(c3)oc(=O)n4C3CCC(=O)NC3=O)CC2)c1 (stereo partly drawn) — BLI binding response (PTPN2 (Homo sapiens, UniProt P17706); degrader, bio-layer interferometry; 15.6 nM, biotinylated protein immobilised; higher = more binding): 0.0339 a.u. and 0.0648 a.u.
O=C(NN(c1ccccc1)c1ccccc1)c1ccc([N+](=O)[O-])o1 — translation activity (Trypanosoma cruzi; reporter mRNA translation, inhibitor, item: Renilla luciferase mRNA; cell-free extract; concentration not given, test 1; relative to: positive over negative control): 106%
